Measured values collected from several papers.
Numbered parts are unrelated; each lists some results of a single study. Substitutions count along the parent as printed.

Sample 1 — method: RNA Bind-n-Seq; molecule type: RNA; matrix: in vitro; tested at: 200 nM; notes: whole 134-nt RNA, ends assumed; together with: 150 mM KCl; baseline: input library; direction: higher = stronger binding
Target: Fragile X messenger ribonucleoprotein 1, C-terminal low-complexity region (Fmr1, Mus musculus, UniProt P35922)
All sequences stand within: GGGAGUUCUACAGUCCGACGAUC … UGGAAUUCUCGGGUGUCAAGG
Strand | log2 enrichment
ACCAUGCAGGUGGGCAUCUUUGGGAAGUGGGGCAAGGGGGGGAUAGUGAGGGGGGUAACACUUUGGGAACAGGUGGUCCCAGGUCGUUUC | 0.475
CCUCAAGUCCUGUGCUACACAUCGUAUGUACCGAAUCGGGAGGGAGGGAGGGGAAAGUAUUAUGUUACGCCGUUCGGAUCUGCACUUCCA | 1.01
UCCUGUGCUACACAUCGUAUGUACCGAAUCGGGAAAAAAGGAAAAAAGGGGAAAAAAGGGAAAGUAUUAUGUUACGCCGUUCGGAUCUGC | -0.451
ACCAUGCAGGUGGGCAUCUUUGGGAAGUGGGGCAAGGGGGGGAUAGGGAGGGGGGUAACACUUGGGGAACAGGUGGUCCCAGGUCGUUUC | 0.755
UCCUGUGCUACACAUCGUAUGUACCGAAUCGGGGCCCCCCGGCCCCCCGGGCCCCCCGGAAAGUAUUAUGUUACGCCGUUCGGAUCUGCA | 0.0395
AGUCCUGUGCUACACAUCGUAUGUACCGAAUCGGGGAAAGGGGAAAGGGGUUUGGGGAAAGUAUUAUGUUACGCCGUUCGGAUCUGCACU | 0.452
CCUCAAGUCCUGUGCUACACAUCGUAUGUACCGAAUCGGAAGGGGAAGGAAGGAAAGUAUUAUGUUACGCCGUUCGGAUCUGCACUUCCA | -0.349
AAGUCCUGUGCUACACAUCGUAUGUACCGAAUCGGGAAAAGGGGAAAAGGAAAAGGGAAAGUAUUAUGUUACGCCGUUCGGAUCUGCACU | -0.171
CUCAAGUCCUGUGCUACACAUCGUAUGUACCGAAUCGGAAGGGAAGGGAAGGGGAAAGUAUUAUGUUACGCCGUUCGGAUCUGCACUUCC | 0.346

Sample 2 — method: DHFR PCA, deep sequencing; matrix: yeast; together with: (+)-ABA 17 µM; baseline: wild-type fitted maximum; direction: higher = stronger binding
Target: ABI1, truncated, D143A, DHFR fusion (Arabidopsis thaliana)
Notes: methotrexate growth selection, single substitutions
Starting sequence: PYL1, truncated, DHFR fusion (Arabidopsis thaliana); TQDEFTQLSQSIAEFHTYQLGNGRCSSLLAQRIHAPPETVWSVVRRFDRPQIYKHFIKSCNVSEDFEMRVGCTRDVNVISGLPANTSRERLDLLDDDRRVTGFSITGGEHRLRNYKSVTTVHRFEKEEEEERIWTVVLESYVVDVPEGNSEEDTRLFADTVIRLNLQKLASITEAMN; partner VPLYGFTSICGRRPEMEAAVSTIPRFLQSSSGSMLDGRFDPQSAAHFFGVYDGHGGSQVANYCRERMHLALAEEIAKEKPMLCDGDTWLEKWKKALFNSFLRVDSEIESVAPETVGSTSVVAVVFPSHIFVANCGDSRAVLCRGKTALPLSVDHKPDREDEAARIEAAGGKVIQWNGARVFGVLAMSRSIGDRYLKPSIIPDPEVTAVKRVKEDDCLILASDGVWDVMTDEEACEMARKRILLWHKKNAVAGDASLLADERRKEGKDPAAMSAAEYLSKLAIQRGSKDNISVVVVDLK
Change | relative binding score [%]
T160K | 62.2
G148I | -4.43
E152S | 82.8
Y53V | 2.17
G21S | 83.3
V70G | 22.5
E131I | 81.3
Y18V | 63.1
E128P | 87.6
I33E | -18.9
C60M | 6.91
Q31R | 68.7
D153Y | 3.56
I12P | 5.08
D95K | 18.7
G23K | 75.2

Sample 3 — method: protein-binding microarray; molecule type: double-stranded DNA, one strand shown; matrix: in vitro; tested at: 2540 nM top; notes: 60-bp whole probe; together with: salmon DNA 0.4 mg/ml; baseline: random background probes; direction: higher = stronger binding; all sequences stand within: GCCTAGCAC … GTCTTGATTCGCTTGACGCTGCTG
Target: Interferon regulatory factor 3, full length, phosphomimetic (IRF3, Homo sapiens, UniProt Q14653, residues 1-427, S386D/S396D/S398D/S402D/T404D/S405D)
Sequence of UniProt Q14653 (whole entry, unmodified, looked up): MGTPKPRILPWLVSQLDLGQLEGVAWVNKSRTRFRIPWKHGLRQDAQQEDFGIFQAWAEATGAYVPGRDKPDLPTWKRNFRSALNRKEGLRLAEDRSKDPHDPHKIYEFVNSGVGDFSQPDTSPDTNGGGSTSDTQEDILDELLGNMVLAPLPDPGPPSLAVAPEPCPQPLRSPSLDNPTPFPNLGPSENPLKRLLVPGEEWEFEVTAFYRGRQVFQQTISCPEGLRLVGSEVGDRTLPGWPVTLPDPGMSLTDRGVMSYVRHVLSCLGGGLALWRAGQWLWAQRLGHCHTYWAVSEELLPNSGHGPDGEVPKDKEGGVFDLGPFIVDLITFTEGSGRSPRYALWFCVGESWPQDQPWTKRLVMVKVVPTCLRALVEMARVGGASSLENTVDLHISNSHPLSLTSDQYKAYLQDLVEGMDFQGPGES
Strand | fitted relative affinity
TTAAGAATGTTTTTCATTGTGTGCTAG | -0.0508 z-score
TTAGGTTTCGACTTACGGTTAGTGCTA | 3.32 z-score
TTAGGTATCGGGACTGGGATAGTGCTA | 1.25 z-score
CTCTGCTTCTGTATGGGCATGTGCTAG | -0.343 z-score
TTAGGACTGCTTCTCCTTTAGTGCTAG | 0.0266 z-score
GACGGTTTCGGGTATCGGGACGTGCTA | 4.69 z-score
TTAGGAATGGGGACTGGGTTAGTGCTA | -0.727 z-score
CACTCTCTGCTTGTGTCTGGGTGCTAG | 1.34 z-score
TTAGGACTGGGTCTCGCTTAGTGCTAG | -0.877 z-score
TTTTTCTCCTATTTAAGACAGTGCTAG | 3.48 z-score
GACGATTTCGACTTTCGGGACGTGCTA | 1.98 z-score
TCAACTTCTCTTTTTGCACTGTGCTAG | 1.49 z-score
GACGGACTGGACTTTCTGGACGTGCTA | -0.383 z-score
GACCGTCTCCTTATCCTGACGTGCTAG | 2.56 z-score
TTAGGTTTCGGGTATAGGTTAGTGCTA | 3.72 z-score
GTCGGTTTCGACTTTCGGGACGTGCTA | 5.29 z-score
TGGGTTTTCAGCTGTTTTTCTGTGCTA | 0.0393 z-score
TTAGGTATCGGGTTTCGTTTAGTGCTA | 2.95 z-score
GACGGACTGGGTCTAGGGACGTGCTAG | -0.936 z-score

Sample 4 — target: CCNF, cyclin fold, Cln2 fusion (human); method: yeast growth competition, sequencing; matrix: yeast; notes: strong parent motif; baseline: not given; direction: higher = stronger binding
Starting sequence: CDC25A docking peptide (human); PPHRRRLLFACSP
Change | normalised enrichment score
H3Q | 8.56
R5N | 1.11
L8A | 5.32
P13L | 6.53
P2N | 6.96
R5P | 0.57
H3C | 10.6
S12K | 6.24
C11A | 8.19
R5Q | 1.63
L8M | 7.72
